Measured values of several laboratories.
Each line is one published result; not all experiments were run side by side. ± marks the error that the study gave.

`CCc1ccc([C@H](C)CC(=O)NC(=O)N[C@@H]2O[C@H](COC(C)=O)[C@@H](OC(C)=O)[C@H](OC(C)=O)[C@H]2OC(C)=O)cc1` has an IC50 of 71 µM (L1210; cell growth or viability; 48 h).
`Cc1cn([C@@H]2O[C@H](CSSC[C@H]3O[C@@H](n4cc(C)c(=O)[nH]c4=O)[C@H](O)[C@@H](F)[C@@H]3O)[C@@H](O)[C@H](F)[C@H]2O)c(=O)[nH]c1=O` gave an IC50 of over 500 µM (L1210; cell growth or viability).
For `CC(C)=CCc1c(OCC2OC2(C)C)ccc2ccc(=O)oc12` (centres unmarked), the IC50 was 47.9 ± 1.11 µM (COLO 320 multidrug-resistant; cell growth, MTT; 72 h).
The IC50 of `COc1cccc(-c2ccc(Nc3ccc(CN(C)C)cc3)c(OC)c2F)c1` is reported as over 1000 µM (SNU1; HTRF, item: total Erk).
With `COc1ccc(O)c(-c2nc(-c3ccccc3)c(-c3ccccc3)n2-c2ccccc2)c1` the IC50 was over 1000 µg/mL (human foreskin fibroblasts HFF; cell viability, colorimetric; 72 h).
For `CC(C)c1cccc(C(C)C)c1-n1c(Cl)c(Cl)n(-c2c(C(C)C)cccc2C(C)C)c1=[Se].[Cl][Ag]`, the IC50 was 0.7 ± 0.1 µM (LoVo-OXP (oxaliplatin-resistant); MTT; 72 h).
With `O=c1[nH]c(=O)n([C@@H]2O[C@H](CSSC[C@H]3O[C@@H](n4cc(F)c(=O)[nH]c4=O)[C@H](O)[C@@H](F)[C@@H]3O)[C@@H](O)[C@H](F)[C@H]2O)cc1F` the IC50 was 231 µM (L1210; cell growth or viability).
For `CN(C)C(=S)N(C)N=Cc1ccccc1SSc1ccccc1C=NN(C)C(=S)N(C)C`, the IC50 was under 1 µM (breast, ovarian, colorectal cancer cells; MTT; 72 h, all cell lines of panel).
With `COc1ccc(-c2cc(=O)c3c(O)cc(O[C@@H]4O[C@H](CO)[C@@H](O)[C@H](O)[C@H]4O)cc3o2)cc1OC` the IC50 was over 100 µM (MDA-MB-231-pcDNA breast cancer; cytotoxicity, resazurin reduction; 72 h).
With `Cc1cc(C)c([N+]#[C][Pd-]([Cl])([Cl])=[C](Nc2ccc(CN[C](NC(C)(C)C)=[Au][Cl])cc2)Nc2c(C)cc(C)cc2C)c(C)c1` the IC50 was over 100 µM (OVCAR-3; cell growth or viability).
`CC(C)(O)C(O)COc1c2ccoc2cc2oc(=O)ccc12` (single isomer, unassigned; (+)) has an IC50 of 42 µM (L5178Y; cell growth or viability, MTT; 72 h).
The IC50 of `[Cl][Au-][c]1n(-c2c(C(c3ccccc3)c3ccccc3)cc(C(c3ccccc3)c3ccccc3)cc2C(c2ccccc2)c2ccccc2)c2c([n+]1-c1c(C(c3ccccc3)c3ccccc3)cc(C(c3ccccc3)c3ccccc3)cc1C(c1ccccc1)c1ccccc1)-c1cccc3cccc-2c13` is reported as over 50 µM (PSN1; cell growth or viability, MTT; 72 h).
For `c1n[nH]cc1-c1nc2ccc3[nH]ncc3c2c2c1CCCC2`, the IC50 was 0.0384 µM (MV4-11; cell growth or viability, resazurin; 72 h).
The IC50 of `CC(C)c1cccc(C(C)C)c1[N+]#[C][Pt-2]([Cl])([Cl])[C]#[N+]c1c(C(C)C)cccc1C(C)C` is reported as over 100 µM (OVCAR-3; cell growth or viability).
With `CC(C)c1cccc(C(C)C)c1N1CCN(c2c(C(C)C)cccc2C(C)C)C1=[Se].[Cl][Ag]` the IC50 was 4.5 ± 0.1 µM (LoVo-OXP (oxaliplatin-resistant); MTT; 72 h).
The IC50 of `N#Cc1c(-c2cccs2)cc(-c2cccc3ccccc23)nc1Nc1ccc(Nc2nc(-c3cccc4ccccc34)cc(-c3cccs3)c2C#N)cc1` is reported as 0.077 µM (RKOp27; cell growth or viability, MTT; 72 h).
With `COCCOc1ccc(-c2ccc3[nH]c4ncc(/C=C/c5ccccc5)cc4c3c2)cc1` the IC50 was over 10 µM (parental Ba/F3 (IL-3 dependent); cell proliferation, [3H]-thymidine incorporation).
With `CC(C)Cc1ccc(C(C)C(=O)[O][Pt]([NH2])([NH2])([Cl])([Cl])[O]C(=O)CCCc2ccccc2)cc1` (centres unmarked) the IC50 was 0.89 ± 0.19 µM (2008 cisplatin-sensitive; cytotoxicity, MTT; 72 h).
`COc1cccc2c1C(=O)c1c(O)c3c(c(O)c1C2=O)C[C@@](O)(C(=O)CO)C[C@@H]3O[C@H]1C[C@H](N)[C@H](O)[C@H](C)O1` has an IC50 of about 0.2 µM (H-BM1 bone marrow fibroblasts; cytotoxicity, MTT; 72 h).
For `C=C(CO)C(=O)O[C@H]1CC(=C)[C@@H]2C[C@H](O)[C@](O)(CCl)[C@@H]2[C@H]2OC(=O)C(=C)C12` (some centres unmarked), the IC50 was 2.5 µg/mL (HEKa; cell growth or viability).
With `Cl.[Cl][Ru-]1[S+]=C(NC2CCCCC2)N[N+]1=Cc1ccc(N(c2ccc(-c3ccsc3)cc2)c2ccc(-c3ccsc3)cc2)cc1.c1ccccc1` the IC50 was over 100 µM (HeLa S3; cytotoxicity, MTT; 24 h).
The IC50 of `CCCCCCCCCCCCCCCCCCCCCCCC(=O)OCC(O)CO` (centres unmarked) is reported as over 100 µg/mL (J774.2; NO release, inhibitor; LPS-stimulated).
For `Cc1cc2cc(C(=O)N(Cc3ccc(C(F)(F)F)cn3)[C@H](C)c3ncccn3)ccc2nc1N`, the IC50 was under 0.1 µM (MTAP-deleted cancer cell lines; cell viability; 6 days).
`CC(C)c1cccc(C(C)C)c1-n1ccn(-c2c(C(C)C)cccc2C(C)C)c1=[Se].[Cl][Au]` has an IC50 of 4.1 µM (PSN1; cell growth or viability, MTT; 72 h).
The IC50 of `COc1cc(N2CCN(C)CC2)ccc1Nc1ncc2c(n1)N(C)c1ccc(C)cc1C(=O)N2CC(F)(F)F` is reported as over 20 µM (PaTu 8988t; cell growth or viability; 5 days).
`Cc1cc(C)c([N+]#[C][Pt-]([Cl])([Cl])=[C](Nc2cccc(CN[C](Nc3c(C)cc(C)cc3C)=[Au][Cl])c2)Nc2c(C)cc(C)cc2C)c(C)c1` gave an IC50 of over 100 µM (OVCAR-3; cell growth or viability).
`Cc1c(C)n(-c2c(C(C)C)cccc2C(C)C)c(=[Se])n1-c1c(C(C)C)cccc1C(C)C.[Cl][Au]` gave an IC50 of 6.4 ± 0.1 µM (H157 spheroids; acid phosphatase; 72 h, 3D spheroid).
For `C/C1=C\CC[C@@]2(C)O[C@H]2[C@H]2OC(=O)[C@@H](CSC(=S)N(C)C)[C@@H]2CC1`, the IC50 was 4.8 µM (KG-1a; cell growth or viability, MTT; 72 h).
The IC50 of `COC(=O)[C@H]1[C@H]2C[C@H]3O[C@@]4(CCN3C[C@H]2C[C@@H](OC(=O)c2cc(OC)c(OC)c(OC)c2)[C@@H]1OC)C(=O)Nc1cc(OC)c(-c2ccc(C)cc2)cc14` is reported as 1.39 µM (SU-DHL-4; cell growth or viability, trypan blue; 72 h).
The IC50 of `Cc1cc(C)c([N+]#[C][Pt-]([Cl])([Cl])=[C](Nc2ccc(CN[C](Nc3c(C)cc(C)cc3C)=[Au][Cl])cc2)Nc2c(C)cc(C)cc2C)c(C)c1` is reported as over 100 µM (OVCAR-3; cell growth or viability).
With `OCCc1cc(CN(Cc2ccccn2)Cc2ccccn2)c(O)c(CN(Cc2ccccn2)Cc2ccccn2)c1` the IC50 was over 100 µM (CHO-K1; cytotoxicity; 72 h).
With `C#CCOc1ccc(C(=O)c2ccc(NC(=O)C(=O)NCCc3ccc(OC)cc3)cc2)cc1` the IC50 was 0.014 µM (NCI-H2122; cell growth or viability).
The IC50 of `C(=C/c1ccccc1)/c1ccccc1` is reported as 85 µM (KG-1a; cell growth or viability, ATP luminescence; 24 h).
`CC(=O)Oc1ccccc1C(=O)[O][Pt]([NH2])([NH2])([Cl])([Cl])[O]C(=O)C(Cl)Cl` has an IC50 of 0.61 ± 0.19 µM (2008 cisplatin-sensitive; cytotoxicity, MTT; 72 h).
The IC50 of `N=C(N/N=C/c1ccccn1)N/N=C/c1ccccn1` is reported as 4.8 µM (PANC-1; cell growth or viability, crystal violet; 72 h).
With `CCC(C(=O)O)C1CCC(C)C(C(C)C(O)C(C)C(=O)C(CC)C2OC3(C=CC(NCc4cn(CSc5ccccc5)nn4)C4(CCC(C)(C5CCC(O)(CC)C(C)O5)O4)O3)C(C)CC2C)O1` (centres unmarked) the IC50 was 0.03 ± 0.004 µM (HMLER CD24low/CD44high; cell proliferation; 72 h).
`CCCCN(C)C(=S)SC[C@@H]1C(=O)O[C@H]2[C@H]1CC/C(C)=C/CC[C@@]1(C)O[C@@H]21` has an IC50 of 15.3 µM (KG-1a; cell growth or viability, MTT; 72 h).
`O=C(CCCc1ccc2c(c1)CCCC2)N[C@@H]1O[C@H](CO)[C@@H](O)[C@H](O)[C@H]1O` has an IC50 of over 250 µM (L1210; cell growth or viability; 48 h).
The IC50 of `[NH2][Pt]1([NH2])([Cl])([O]C(=O)C(F)(F)F)[O]C(=O)C2(CC(=O)C2)C(=O)[O]1` is reported as 92.7 ± 1.56 µM (SGC-7901/CDDP cisplatin-resistant; cell viability, MTT; 48 h).
`COc1ccc(C[C@H]2COC(=O)[C@@H]2Cc2ccc(OCCCCCCCCC(=O)NO)c(OC)c2)cc1OC` gave an IC50 of 1.93 µM (MV4-11; cell growth or viability, CCK-8; 48 h).
The IC50 of `CN1CCN(/C=C/C(=O)c2ccc3[nH]c4ncc(-c5ccc(N6CCN(C)CC6)cc5)cc4c3c2)CC1` is reported as 0.48 µM (parental Ba/F3 (IL-3 dependent); cell proliferation, [3H]-thymidine incorporation).
